# Assay results of several laboratories.
# A part holds a random share of what one study measured. Values joined by “and” are separate records of one study, mostly repeats; a detail may differ.
# Sequence of UniProt P08913 (whole entry, looked up): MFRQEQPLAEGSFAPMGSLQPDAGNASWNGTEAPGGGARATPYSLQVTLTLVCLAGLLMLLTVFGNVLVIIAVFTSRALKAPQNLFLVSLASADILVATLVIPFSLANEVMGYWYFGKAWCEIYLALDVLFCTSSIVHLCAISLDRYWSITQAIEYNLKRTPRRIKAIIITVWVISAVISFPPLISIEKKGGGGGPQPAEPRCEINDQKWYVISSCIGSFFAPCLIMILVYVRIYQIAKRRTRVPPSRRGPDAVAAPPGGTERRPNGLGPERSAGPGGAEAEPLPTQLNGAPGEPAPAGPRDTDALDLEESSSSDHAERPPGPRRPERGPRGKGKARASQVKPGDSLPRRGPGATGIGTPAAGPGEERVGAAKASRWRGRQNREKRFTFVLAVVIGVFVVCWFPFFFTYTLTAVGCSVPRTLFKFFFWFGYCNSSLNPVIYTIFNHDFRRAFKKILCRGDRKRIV
# Sequence of UniProt P18089 (whole entry, looked up): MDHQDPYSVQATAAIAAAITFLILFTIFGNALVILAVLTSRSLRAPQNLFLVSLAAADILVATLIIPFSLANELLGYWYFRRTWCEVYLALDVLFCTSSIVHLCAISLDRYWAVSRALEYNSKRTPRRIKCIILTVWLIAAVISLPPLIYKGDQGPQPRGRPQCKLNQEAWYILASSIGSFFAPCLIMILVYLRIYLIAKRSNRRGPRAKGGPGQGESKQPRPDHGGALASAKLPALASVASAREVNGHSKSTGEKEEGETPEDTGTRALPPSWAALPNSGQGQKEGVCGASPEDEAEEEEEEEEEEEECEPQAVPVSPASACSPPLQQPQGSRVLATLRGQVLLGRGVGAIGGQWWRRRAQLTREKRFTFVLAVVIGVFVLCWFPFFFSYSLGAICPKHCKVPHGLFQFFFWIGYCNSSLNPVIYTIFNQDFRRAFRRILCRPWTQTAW
# Sequence of UniProt P21917 (whole entry, looked up): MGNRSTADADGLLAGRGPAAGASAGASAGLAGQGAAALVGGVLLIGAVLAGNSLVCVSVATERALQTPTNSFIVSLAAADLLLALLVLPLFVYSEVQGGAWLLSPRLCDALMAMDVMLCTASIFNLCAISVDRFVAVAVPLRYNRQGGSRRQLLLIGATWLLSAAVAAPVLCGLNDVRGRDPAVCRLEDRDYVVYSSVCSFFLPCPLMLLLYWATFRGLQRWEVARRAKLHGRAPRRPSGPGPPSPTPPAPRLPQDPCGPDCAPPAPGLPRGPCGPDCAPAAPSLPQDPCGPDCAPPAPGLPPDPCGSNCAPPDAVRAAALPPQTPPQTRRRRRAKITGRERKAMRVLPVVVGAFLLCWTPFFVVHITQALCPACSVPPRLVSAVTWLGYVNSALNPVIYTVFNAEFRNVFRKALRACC
# Sequence of UniProt P28222 (whole entry, looked up): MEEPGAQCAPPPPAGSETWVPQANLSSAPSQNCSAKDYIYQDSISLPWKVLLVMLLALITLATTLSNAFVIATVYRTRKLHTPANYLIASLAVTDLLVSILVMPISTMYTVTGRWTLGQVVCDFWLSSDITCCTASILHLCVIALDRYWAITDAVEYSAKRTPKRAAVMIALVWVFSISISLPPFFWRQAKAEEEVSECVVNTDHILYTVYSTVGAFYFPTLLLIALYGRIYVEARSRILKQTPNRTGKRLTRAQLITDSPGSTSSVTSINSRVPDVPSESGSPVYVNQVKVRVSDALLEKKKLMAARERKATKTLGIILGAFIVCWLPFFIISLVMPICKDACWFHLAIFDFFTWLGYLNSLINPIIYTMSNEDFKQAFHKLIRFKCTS
# Sequence of UniProt P08173 (whole entry, looked up): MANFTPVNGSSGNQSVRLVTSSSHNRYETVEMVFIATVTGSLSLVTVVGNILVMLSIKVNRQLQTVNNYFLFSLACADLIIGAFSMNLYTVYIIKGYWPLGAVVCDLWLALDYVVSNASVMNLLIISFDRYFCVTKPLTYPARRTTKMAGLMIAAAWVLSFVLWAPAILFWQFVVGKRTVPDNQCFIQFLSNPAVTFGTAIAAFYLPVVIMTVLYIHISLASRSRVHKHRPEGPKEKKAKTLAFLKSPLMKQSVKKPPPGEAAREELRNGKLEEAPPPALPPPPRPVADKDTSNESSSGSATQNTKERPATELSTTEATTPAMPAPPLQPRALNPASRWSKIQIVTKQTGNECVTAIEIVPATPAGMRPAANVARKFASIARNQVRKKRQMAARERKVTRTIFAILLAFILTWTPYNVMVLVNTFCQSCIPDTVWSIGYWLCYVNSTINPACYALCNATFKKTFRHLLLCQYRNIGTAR
# Sequence of UniProt Q5BJF2 (whole entry, looked up): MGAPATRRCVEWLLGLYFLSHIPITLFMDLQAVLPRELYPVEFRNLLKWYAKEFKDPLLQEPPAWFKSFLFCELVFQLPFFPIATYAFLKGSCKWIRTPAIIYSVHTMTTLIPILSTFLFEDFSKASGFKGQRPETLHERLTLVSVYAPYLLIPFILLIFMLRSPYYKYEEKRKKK
# Sequence of UniProt P08912 (whole entry, looked up): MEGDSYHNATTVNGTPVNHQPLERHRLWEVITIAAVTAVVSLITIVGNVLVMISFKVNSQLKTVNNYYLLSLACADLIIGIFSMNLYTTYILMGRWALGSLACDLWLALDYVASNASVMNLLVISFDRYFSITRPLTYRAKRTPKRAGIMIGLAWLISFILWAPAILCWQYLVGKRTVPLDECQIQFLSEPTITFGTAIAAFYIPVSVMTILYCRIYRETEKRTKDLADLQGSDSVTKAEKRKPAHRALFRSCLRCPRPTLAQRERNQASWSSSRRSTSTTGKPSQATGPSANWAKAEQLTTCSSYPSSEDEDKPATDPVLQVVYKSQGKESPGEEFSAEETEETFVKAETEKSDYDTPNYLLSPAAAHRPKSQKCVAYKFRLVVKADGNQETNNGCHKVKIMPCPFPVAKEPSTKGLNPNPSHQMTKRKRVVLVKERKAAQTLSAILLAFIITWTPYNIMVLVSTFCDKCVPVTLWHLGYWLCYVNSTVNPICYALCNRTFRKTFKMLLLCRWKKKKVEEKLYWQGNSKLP
# Sequence of UniProt P14416 (whole entry, looked up): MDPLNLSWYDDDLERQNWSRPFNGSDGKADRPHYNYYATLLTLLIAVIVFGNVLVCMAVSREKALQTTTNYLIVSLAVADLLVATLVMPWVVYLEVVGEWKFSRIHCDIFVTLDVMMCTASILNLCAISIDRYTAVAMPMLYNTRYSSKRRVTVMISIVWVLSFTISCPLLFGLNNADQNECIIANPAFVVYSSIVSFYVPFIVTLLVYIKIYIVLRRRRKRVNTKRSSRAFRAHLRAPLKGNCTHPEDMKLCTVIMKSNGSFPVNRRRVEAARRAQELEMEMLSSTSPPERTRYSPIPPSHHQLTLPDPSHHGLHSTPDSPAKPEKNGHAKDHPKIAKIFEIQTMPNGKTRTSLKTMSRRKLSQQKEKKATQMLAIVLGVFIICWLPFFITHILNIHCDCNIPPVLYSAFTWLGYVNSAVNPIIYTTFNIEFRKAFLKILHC
# Sequence of UniProt P25021 (whole entry, looked up): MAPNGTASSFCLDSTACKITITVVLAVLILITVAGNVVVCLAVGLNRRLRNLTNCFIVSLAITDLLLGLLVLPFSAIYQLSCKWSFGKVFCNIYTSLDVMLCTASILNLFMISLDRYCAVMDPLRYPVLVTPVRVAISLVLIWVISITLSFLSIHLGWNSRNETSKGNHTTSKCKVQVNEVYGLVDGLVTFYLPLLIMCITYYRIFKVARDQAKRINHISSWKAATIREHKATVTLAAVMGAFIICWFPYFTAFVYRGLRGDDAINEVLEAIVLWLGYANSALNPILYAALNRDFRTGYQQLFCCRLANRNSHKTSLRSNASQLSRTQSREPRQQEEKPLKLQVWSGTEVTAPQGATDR
# Sequence of UniProt P07550 (whole entry, looked up): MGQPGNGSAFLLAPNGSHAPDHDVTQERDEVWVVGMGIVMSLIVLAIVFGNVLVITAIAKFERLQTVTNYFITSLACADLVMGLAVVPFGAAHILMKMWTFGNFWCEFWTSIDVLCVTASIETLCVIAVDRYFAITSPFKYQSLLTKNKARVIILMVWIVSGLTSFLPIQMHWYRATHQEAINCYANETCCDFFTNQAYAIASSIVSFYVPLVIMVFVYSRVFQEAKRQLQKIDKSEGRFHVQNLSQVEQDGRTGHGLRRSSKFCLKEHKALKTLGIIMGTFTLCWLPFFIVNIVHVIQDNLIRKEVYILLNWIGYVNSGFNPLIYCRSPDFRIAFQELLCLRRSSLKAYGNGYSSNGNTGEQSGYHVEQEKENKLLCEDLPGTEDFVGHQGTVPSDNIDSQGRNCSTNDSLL
# Sequence of UniProt P50406 (whole entry, looked up): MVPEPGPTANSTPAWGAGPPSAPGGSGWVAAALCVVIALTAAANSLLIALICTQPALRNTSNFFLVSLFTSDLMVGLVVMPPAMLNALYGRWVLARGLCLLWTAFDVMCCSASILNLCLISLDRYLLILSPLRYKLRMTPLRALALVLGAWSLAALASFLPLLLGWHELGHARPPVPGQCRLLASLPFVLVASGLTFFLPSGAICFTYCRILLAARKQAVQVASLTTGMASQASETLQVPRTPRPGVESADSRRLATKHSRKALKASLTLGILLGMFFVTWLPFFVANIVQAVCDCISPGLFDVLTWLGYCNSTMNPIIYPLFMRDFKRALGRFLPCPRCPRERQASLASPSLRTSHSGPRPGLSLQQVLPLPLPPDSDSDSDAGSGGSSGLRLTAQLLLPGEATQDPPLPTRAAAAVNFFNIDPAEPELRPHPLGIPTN

# Sample 1
# Cell line: mouse MPNST tumor cells
# Technique: high-content immunofluorescence imaging
# Refers to: nuclear SOX9
# Concentration: 10 µM
# Time: 12 h
# Notes: mean of 2 replicates
# Relative to: DMSO control
# Direction: higher = more nuclear SOX9
SMILES,nuclear SOX9 intensity
Cc1cc(C)c(S(=O)(=O)n2cc(C)cc2C)c(C)c1,102 % of DMSO
CC(C)CNc1ccnc(NCc2csc(-c3ccccc3)n2)n1,132 % of DMSO
O=C(Nc1cc(-c2ccccc2)nn1-c1ccccc1)c1ccc([N+](=O)[O-])cc1,128 % of DMSO
O=C(N1CCC(C(c2ccc3c(c2)OCO3)c2ccc3c(c2)OCO3)CC1)n1cncn1,107 % of DMSO
CN(C)C(=O)n1nnnc1Cc1ccc(-c2ccccc2)cc1,142 % of DMSO
CC1CCN(CCCC(=O)c2ccc(F)cc2)CC1,106 % of DMSO
OCCOCCN1CCN(C2=Nc3ccccc3Sc3ccccc32)CC1,116 % of DMSO and 117 % of DMSO
CCN(CC)Cc1ccc(C(=O)N(CCc2ccccc2OC)[C@@H]2CCNC2)cc1,142 % of DMSO
Cc1ccc2cccc(NC(=O)c3ccc(OC(C)C)cc3)c2n1,114 % of DMSO
CN(Cc1ccccc1)C(=O)[C@H](Cc1ccc2ccccc2c1)NC(=O)[C@@H]1CCCN1C(=O)Nc1ccccc1[N+](=O)[O-],133 % of DMSO
C[C@]12CC[C@H]3[C@@H](CCC4=CC(=O)CC[C@@]43C)[C@@H]1CC[C@@H]2C(=O)CO,94.6 % of DMSO

# Sample 2
# Host: mouse
# Matrix: microsomes or S9
# Concentration: 2 µM
# Time: 0.5 h
Compound,remaining compound [%]
Cc1ccc2c(c1)nnn2C1CCN(C(=O)N(c2ccccc2)c2ccccc2)CC1,0.899
O=C(c1c2c(nc3ccccc13)C(=O)N(C1CCCCC1)C2)N1CCN(C2CCCCC2)CC1,11.5
CCCn1ncc(N2CCC(C(=O)N3CCN(CCOc4ccc(Cl)cc4)CC3)CC2)cc1=O,> 100
Cc1nn(-c2nnn(CC(=O)O)n2)c(C)c1Br,98.7
Cc1cccc(CN(CCN2CCOCC2)CC(O)COc2ccc(Cl)cc2)c1 (stereo not shown),22.5
Cc1nc(Oc2ccc3c(c2)OCO3)c2c3c(sc2n1)CCC3,0.0158
COc1cc(=O)n2c(c1C(=O)Nc1ccc(Cl)c(C)c1)CCCC2,3.25
COc1nccnc1Oc1cc(F)c(CN2CCCC2)c(Cl)c1,0.82
c1ccc2c(c1)OCC(c1noc(CCc3c[nH]nn3)n1)O2 (stereo not shown),> 100
CCOC(=O)Cn1c2c(c(=N)c3c1CCC3)CCC2,92.2
CC1(C)CC(=O)c2c(O)cc(OCC(=O)N3CCN(C(=O)C4COc5ccccc5O4)CC3)cc2O1 (stereo not shown),2.79

# Sample 3
# SMILES: C[C@H](c1ccc(F)cc1)N(Cc1ccc(Cl)c(C(=O)O)c1)C(=O)c1cnc2ccccc2c1
# Concentration: 10 µM
target,read-out,inhibition
"HRH2 (Homo sapiens, UniProt P25021)",cell-free assay,-12.7%
"DRD4 (Homo sapiens, UniProt P21917)",cell-free assay,14.9%
"TMEM97 (Homo sapiens, UniProt Q5BJF2)",cell-free assay,-15.4%
"CHRM5 (Homo sapiens, UniProt P08912)",cell-free assay,-1.1%
"HTR6 (Homo sapiens, UniProt P50406)",cell-free assay,11.3%
"ADRA2A (Homo sapiens, UniProt P08913)",cell-free assay,-10.4%
"ADRA2B (Homo sapiens, UniProt P18089)",cell-free assay,17.7%
"ADRB2 (Homo sapiens, UniProt P07550)",cell-free assay,24.1%
"CHRM4 (Homo sapiens, UniProt P08173)",cell-free assay,4.42%
"HRH1 (Homo sapiens, UniProt P35367)",cell-free assay,-3.13%
"HTR1B (Homo sapiens, UniProt P28222)",ligand displacement,-7.94%
"DRD2 (Homo sapiens, UniProt P14416)",cell-free assay,-0.95%

# Sample 4
# Organism: Sarcocystis neurona
# Read-out: parasite activity
# Concentration: 10 µM
# Time: 96 h
SMILES,activity class
CCc1nn(CCCN2CCN(c3cccc(Cl)c3)CC2)c(=O)n1CCOc1ccccc1,inactive
CN1CCN(CC/C=C2/c3ccccc3Sc3ccc(S(=O)(=O)N(C)C)cc32)CC1,active
CC1COc2c(N3CCN(C)CC3)c(F)cc3c(=O)c(C(=O)O)cn1c23 (stereo not shown),inactive
CC#C[C@]1(O)CC[C@H]2[C@@H]3CCC4=CC(=O)CCC4=C3[C@@H](c3ccc(N(C)C)cc3)C[C@@]21C,inactive
CC[N+](C)(CC)CCOC(=O)C(O)(c1ccccc1)C1CCCCC1 (stereo not shown),inactive
CS(=O)(=O)OCCCCOS(C)(=O)=O,inactive
COc1ccc(Cl)cc1C(=O)NCCc1ccc(S(=O)(=O)NC(=O)NC2CCCCC2)cc1,inactive
CCCCC[C@H](O)/C=C/[C@H]1[C@H](O)CC(=O)[C@@H]1CCCCCCC(=O)O,inactive
C[C@]12C[C@H](O)[C@H]3[C@@H](CCC4=CC(=O)CC[C@@]43C)[C@@H]1CC[C@@H]2C(=O)CO,inactive

# A few entries again (sample 2):
Compound,remaining compound [%]
c1ccc2c(c1)OCC(c1noc(CCc3c[nH]nn3)n1)O2 (stereo not shown),> 100
Cc1nn(-c2nnn(CC(=O)O)n2)c(C)c1Br,98.7
CCOC(=O)Cn1c2c(c(=N)c3c1CCC3)CCC2,92.2
COc1nccnc1Oc1cc(F)c(CN2CCCC2)c(Cl)c1,0.82
COc1cc(=O)n2c(c1C(=O)Nc1ccc(Cl)c(C)c1)CCCC2,3.25
Cc1cccc(CN(CCN2CCOCC2)CC(O)COc2ccc(Cl)cc2)c1 (stereo not shown),22.5
